Measurements of several laboratories.
Protocols differ between the studies behind these lines. “And” joins repeats or separate records; there may be more than shown. ± marks the error that the study gave.

SMILES	assay	system	conditions	how to read	measurement	value
Cc1cc(NC2CCN(C(=O)OC3CCN(C(=O)/C=C/CN(C)C)C3)CC2)n2ncc(C(C)C)c2n1 (stereo not shown)	Phase I dose escalation CTCAE v4.0, item: Asthenia	patients with advanced solid tumours	dose not given, all dose schedules any grade		patients with adverse event	13%
CC[C@H](C)[C@@H]1NC(=O)[C@@](C)(NC(=O)[C@H](CCCNC(=N)N)NC(=O)[C@H](CC(C)C)NC(=O)[C@@H](NC(=O)[C@H](CCC(N)=O)NC(=O)[C@H](CC(C)C)NC(C)=O)[C@@H](C)O)CCCC=CCCC[C@@](C)(C(=O)N[C@@H](CC(C)C)C(=O)N[C@@H](Cc2ccc3ccccc3c2)C(N)=O)NC(=O)[C@H](CCCNC(=N)N)NC(=O)[C@H](CCC(N)=O)NC1=O		BALB/c mouse	intraperitoneal, 5 mg/kg		Vz	0.01 L
NC1(C(=O)N[C@@H](CCO)c2ccc(Cl)cc2)CCN(c2nc[nH]c3nccc2-3)CC1		human, plasma	oral, 320 mg twice daily, with: enzalutamide 160 mg daily		dose-normalised AUC(0-last)	1160 ng·h/mL and 1100 ng·h/mL and 1840 ng·h/mL
O=C(O)[C@H]1O[C@@H](Oc2cc(O)cc(/C=C\c3ccc(O)cc3)c2)[C@H](O)[C@@H](O)[C@@H]1O		human, cerebrospinal fluid	dose not given, mean		CSF concentration	not detected
OC[C@H]1O[C@@H](c2ccc(F)c(Cc3cc4ccccc4s3)c2)[C@H](O)[C@@H](O)[C@@H]1O		Japanese patients, type 1 diabetes	oral, 100 mg/day, onset day 7	baseline: patients	hypoglycaemia-related adverse event	4%
CC(C)(C)c1ccc(O)c(CN(Cc2cc(C(C)(C)C)ccc2O)C2CCC(NC(N)=O)CC2)c1 (stereo not shown)		mouse plasma	5 ng/mL, 3 months, -20 °C, long-term storage		recovery	99.7 ± 1.15%
COc1ccc2[nH]c([S+]([O-])Cc3ncc(C)c(OC)c3C)nc2c1 (stereo not shown)		healthy Chinese volunteers, plasma	oral, 20 mg, enteric-coated tablets, CYP2C19 rapid metabolizers		AUC(0-inf)	602 ± 295 ng·h/mL
CN[C@H]1C(=O)N[C@@H]2Cc3ccc(cc3)Oc3cc4cc(c3O[C@@H]3O[C@H](C(=O)O)[C@@H](O)[C@H](O)[C@H]3NC(=O)CCCCCCCCC(C)C)Oc3ccc(cc3Cl)[C@@H](O)[C@@H]3NC(=O)[C@H](NC(=O)[C@@H]4NC(=O)[C@@H](NC2=O)c2cc(cc(O)c2Cl)Oc2cc1ccc2O)c1ccc(O)c(c1)-c1c(O[C@H]2O[C@H](CO)[C@@H](O)[C@H](O)[C@@H]2O)cc(O)cc1[C@@H](C(=O)NCCCN(C)C)NC3=O	population PK model	paediatric patients	reference weight 70 kg		second intercompartmental clearance	0.00996 L/h
O=C(Nc1nc2cccc(-c3ccc(CN4CCS(=O)(=O)CC4)cc3)n2n1)C1CC1	item: headache	human rheumatoid arthritis patients	oral, 30 mg once daily, 4 weeks, regardless of relatedness		treatment-emergent adverse events	11.8%
N=C(N)NS(=O)(=O)c1ccc(N/C=C2\C(=O)Nc3ccccc32)cc1		octanol/buffer, 40 mM buffer	pH 11		logP	1.72
CNC(=O)c1ccc(-c2cnc3ncc(Cc4ccc5ncccc5c4)n3n2)cc1F		human, plasma	oral, 300 mg twice daily, capsule, cycle 1 day 1		AUC(0-inf), geometric mean	8040 ng·h/mL
CCN1/C(=C/C(C)=O)Sc2ccc(F)cc21		cynomolgus monkey	oral, 30 mg/kg, 4 h post-dose		PR interval	92 ± 3 ms
COc1cccc(OC)c1NS(=O)(=O)c1ccc(N/C=C2\C(=O)Nc3ccc4ncsc4c32)cc1		octanol/buffer	pH 11		logP	2.69
CC[C@H](C)[C@H](NC(=O)[C@H](Cc1ccccc1)NC(=O)[C@H](CCC(=O)O)NC(=O)[C@H](CCCCNC(=O)COCCOCCNC(=O)COCCOCCNC(=O)CC[C@H](NC(=O)CCCCCCCCCCCCCCCCC(=O)O)C(=O)O)NC(=O)[C@H](C)NC(=O)[C@H](C)NC(=O)[C@H](CCC(N)=O)NC(=O)CNC(=O)[C@H](CCC(=O)O)NC(=O)[C@H](CC(C)C)NC(=O)[C@H](Cc1ccc(O)cc1)NC(=O)[C@H](CO)NC(=O)[C@H](CO)NC(=O)[C@@H](NC(=O)[C@H](CC(=O)O)NC(=O)[C@H](CO)NC(=O)[C@@H](NC(=O)[C@H](Cc1ccccc1)NC(=O)[C@@H](NC(=O)CNC(=O)[C@H](CCC(=O)O)NC(=O)C(C)(C)NC(=O)[C@@H](N)Cc1cnc[nH]1)[C@@H](C)O)[C@@H](C)O)C(C)C)C(=O)N[C@@H](C)C(=O)N[C@@H](Cc1c[nH]c2ccccc12)C(=O)N[C@@H](CC(C)C)C(=O)N[C@H](C(=O)N[C@@H](CCCNC(=N)N)C(=O)NCC(=O)N[C@@H](CCCNC(=N)N)C(=O)NCC(=O)O)C(C)C	LC-MS/MS	Chinese patients with type 2 diabetes, plasma	subcutaneous, single dose 0.114 mg, up to 840 h, least-squares mean		dose-normalised AUC(0-t)	5840 nmol·h/L/mg
CCN1CCN(Cc2ccc(Nc3ncc(F)c(-c4cc(F)c5nc6n(c5c4)[C@H](C)CCC6)n3)nc2)CC1		human, plasma	500 mg single dose, mean		Vd/F	1970 L
COc1ncc(-c2nc3c(n2C(C)C)[C@H](c2ccc(Cl)cc2)N(c2cc(Cl)cn(C)c2=O)C3=O)c(OC)n1		human patients, plasma	oral, 45 mg, low-dose arm, cycle 2 day 1		median Tmax	2.9 h
CCO[C@H]1CCN(Cc2c(OC)cc(C)c3[nH]ccc23)[C@H](c2ccc(C(=O)O)cc2)C1		PNH patients, active haemolysis	oral, 200 mg, 8 weeks, treatment		incidence of nasopharyngitis	20%
CCOc1ccc2nc(SCC(=O)Nc3c(C)n(C)n(-c4ccccc4)c3=O)sc2c1		octanol/buffer	pH 11, known kinase inactives set		logP	2.95
CCCCCC(=O)N1CCC[C@H]1C(=O)N[C@@H](CCC1CCCCC1)C(=O)N[C@@H](CC(C)C)C(=O)NC(C)(C)C(=O)N[C@@H](CC(C)C)C(=O)N[C@@H](CC(C)C)C(=O)NC(C)(C)C(=O)NC(C)(C)C(=O)NCCC(=O)N[C@@H](C)CN(C)C	circular dichroism	phosphate buffer	pH 7.4, 20 °C		alpha-helix content	100%
